# Published values from different studies.
# Chains of the proteins cited; added tags and fusions are not shown. A line that says so, or that is headed by a name, gives the form on record, which may keep a tag or linker. Residues count along the entry.
# UniProt P29704, 1-420 limits assumed: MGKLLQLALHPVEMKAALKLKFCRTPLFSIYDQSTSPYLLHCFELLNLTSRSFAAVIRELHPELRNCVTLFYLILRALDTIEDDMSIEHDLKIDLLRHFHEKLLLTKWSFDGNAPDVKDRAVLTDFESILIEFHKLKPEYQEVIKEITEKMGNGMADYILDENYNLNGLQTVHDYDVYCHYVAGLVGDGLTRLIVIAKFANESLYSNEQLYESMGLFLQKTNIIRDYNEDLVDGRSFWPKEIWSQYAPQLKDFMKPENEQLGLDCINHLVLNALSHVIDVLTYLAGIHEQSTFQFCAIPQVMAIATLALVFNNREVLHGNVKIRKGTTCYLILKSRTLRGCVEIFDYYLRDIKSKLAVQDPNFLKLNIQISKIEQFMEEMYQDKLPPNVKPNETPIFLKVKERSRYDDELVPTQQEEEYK
# UniProt A0A024B7W1, with tags, fused parts or gaps with the stated changes limits assumed: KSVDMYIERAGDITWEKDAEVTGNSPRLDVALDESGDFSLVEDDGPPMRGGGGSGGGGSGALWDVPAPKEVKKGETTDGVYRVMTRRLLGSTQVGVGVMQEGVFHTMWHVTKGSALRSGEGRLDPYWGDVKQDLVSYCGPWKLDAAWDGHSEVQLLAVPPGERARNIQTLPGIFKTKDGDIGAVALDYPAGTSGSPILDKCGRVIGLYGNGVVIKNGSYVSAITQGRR
# UniProt Q96RJ0, whole entry: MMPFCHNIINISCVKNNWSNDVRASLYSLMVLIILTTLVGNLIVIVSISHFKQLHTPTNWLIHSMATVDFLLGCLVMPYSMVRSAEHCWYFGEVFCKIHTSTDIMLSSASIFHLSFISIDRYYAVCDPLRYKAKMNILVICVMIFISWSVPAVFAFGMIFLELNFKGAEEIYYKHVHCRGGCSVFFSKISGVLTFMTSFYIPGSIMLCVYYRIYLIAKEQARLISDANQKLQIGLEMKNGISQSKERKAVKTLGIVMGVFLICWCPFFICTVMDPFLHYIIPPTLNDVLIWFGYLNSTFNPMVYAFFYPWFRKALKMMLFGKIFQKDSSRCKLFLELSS
# UniProt P0ADG7, whole entry S250A/L444Y: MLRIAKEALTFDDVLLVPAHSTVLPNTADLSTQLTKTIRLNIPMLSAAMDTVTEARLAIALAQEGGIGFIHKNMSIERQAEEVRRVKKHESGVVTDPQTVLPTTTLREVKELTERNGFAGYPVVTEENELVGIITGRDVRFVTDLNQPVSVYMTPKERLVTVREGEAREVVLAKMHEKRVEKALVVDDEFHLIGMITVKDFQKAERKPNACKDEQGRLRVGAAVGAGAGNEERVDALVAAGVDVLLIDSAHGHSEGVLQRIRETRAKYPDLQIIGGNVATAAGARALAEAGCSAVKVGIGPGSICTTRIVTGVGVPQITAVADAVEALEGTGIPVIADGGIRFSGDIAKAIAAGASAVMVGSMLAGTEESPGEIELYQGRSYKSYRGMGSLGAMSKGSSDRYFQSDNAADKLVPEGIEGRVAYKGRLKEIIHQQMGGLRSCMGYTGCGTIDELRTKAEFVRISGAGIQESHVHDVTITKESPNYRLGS
# UniProt P21588, 29-576 limits assumed: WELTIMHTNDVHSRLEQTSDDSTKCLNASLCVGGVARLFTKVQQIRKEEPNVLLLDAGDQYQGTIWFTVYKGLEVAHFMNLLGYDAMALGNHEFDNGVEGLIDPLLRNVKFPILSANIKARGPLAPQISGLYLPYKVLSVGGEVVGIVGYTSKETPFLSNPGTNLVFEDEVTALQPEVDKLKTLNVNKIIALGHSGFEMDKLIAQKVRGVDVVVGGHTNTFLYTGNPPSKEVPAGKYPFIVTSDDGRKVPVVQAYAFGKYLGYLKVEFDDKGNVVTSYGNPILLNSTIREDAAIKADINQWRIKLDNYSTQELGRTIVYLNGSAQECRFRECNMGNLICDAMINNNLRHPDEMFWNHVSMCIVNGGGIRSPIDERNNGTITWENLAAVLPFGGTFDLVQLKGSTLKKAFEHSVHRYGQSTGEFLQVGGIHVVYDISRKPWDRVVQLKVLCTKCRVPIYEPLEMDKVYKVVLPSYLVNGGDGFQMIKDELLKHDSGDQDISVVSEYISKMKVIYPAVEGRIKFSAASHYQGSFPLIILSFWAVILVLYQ
# UniProt Q00960, 27-1482 limits assumed: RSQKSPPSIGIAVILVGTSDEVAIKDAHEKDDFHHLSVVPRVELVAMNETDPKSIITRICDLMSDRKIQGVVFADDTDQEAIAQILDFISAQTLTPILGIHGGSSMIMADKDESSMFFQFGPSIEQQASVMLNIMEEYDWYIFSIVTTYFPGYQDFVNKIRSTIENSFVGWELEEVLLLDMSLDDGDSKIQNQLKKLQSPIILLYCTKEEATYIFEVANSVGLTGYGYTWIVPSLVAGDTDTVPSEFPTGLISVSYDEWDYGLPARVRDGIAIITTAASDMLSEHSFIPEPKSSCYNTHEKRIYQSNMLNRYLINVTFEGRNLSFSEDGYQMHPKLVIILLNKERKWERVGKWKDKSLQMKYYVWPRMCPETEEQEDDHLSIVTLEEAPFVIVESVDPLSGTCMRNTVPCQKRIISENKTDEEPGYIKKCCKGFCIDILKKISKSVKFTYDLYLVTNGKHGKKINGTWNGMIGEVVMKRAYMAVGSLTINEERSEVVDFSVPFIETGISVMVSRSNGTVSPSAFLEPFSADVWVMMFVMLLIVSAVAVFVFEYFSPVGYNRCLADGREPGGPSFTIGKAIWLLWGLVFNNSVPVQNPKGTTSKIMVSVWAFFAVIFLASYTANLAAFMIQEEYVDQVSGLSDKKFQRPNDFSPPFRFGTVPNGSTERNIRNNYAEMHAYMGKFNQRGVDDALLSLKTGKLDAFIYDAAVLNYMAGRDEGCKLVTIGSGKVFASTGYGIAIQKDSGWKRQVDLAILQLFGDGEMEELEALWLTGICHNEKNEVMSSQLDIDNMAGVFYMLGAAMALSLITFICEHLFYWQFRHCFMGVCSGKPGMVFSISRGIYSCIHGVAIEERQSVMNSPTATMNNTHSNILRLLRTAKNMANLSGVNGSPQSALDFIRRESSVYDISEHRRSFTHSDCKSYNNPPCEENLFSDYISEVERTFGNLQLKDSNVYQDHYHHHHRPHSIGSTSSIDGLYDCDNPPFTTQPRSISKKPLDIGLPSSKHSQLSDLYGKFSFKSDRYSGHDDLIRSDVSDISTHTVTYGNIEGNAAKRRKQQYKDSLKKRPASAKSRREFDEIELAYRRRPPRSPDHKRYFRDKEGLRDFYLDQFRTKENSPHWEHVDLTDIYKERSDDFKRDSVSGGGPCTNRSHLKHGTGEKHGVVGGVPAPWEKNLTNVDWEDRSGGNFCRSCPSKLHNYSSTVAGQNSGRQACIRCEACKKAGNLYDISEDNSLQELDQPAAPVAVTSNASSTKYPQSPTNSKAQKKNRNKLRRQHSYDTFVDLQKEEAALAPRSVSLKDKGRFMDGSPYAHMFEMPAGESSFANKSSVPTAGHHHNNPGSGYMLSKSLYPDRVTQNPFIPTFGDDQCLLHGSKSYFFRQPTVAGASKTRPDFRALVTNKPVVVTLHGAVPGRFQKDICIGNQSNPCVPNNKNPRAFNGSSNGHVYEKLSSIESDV
# UniProt P05804, whole entry: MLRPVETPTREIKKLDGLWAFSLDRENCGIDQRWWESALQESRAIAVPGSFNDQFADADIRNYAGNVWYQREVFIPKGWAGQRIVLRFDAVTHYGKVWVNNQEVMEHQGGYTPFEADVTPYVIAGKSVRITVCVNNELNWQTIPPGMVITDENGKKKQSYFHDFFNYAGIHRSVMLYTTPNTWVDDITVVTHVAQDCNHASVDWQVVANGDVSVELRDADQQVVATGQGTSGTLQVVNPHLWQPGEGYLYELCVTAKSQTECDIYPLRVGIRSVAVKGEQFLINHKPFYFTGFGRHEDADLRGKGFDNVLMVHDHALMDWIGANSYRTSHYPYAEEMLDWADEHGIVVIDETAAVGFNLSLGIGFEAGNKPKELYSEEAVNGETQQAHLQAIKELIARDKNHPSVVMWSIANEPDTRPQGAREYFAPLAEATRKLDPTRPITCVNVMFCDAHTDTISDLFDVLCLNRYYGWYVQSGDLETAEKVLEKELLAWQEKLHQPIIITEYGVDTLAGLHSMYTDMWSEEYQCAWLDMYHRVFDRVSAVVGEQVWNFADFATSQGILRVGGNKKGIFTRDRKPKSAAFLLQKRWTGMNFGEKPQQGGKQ
# UniProt P25779, whole entry, looked up: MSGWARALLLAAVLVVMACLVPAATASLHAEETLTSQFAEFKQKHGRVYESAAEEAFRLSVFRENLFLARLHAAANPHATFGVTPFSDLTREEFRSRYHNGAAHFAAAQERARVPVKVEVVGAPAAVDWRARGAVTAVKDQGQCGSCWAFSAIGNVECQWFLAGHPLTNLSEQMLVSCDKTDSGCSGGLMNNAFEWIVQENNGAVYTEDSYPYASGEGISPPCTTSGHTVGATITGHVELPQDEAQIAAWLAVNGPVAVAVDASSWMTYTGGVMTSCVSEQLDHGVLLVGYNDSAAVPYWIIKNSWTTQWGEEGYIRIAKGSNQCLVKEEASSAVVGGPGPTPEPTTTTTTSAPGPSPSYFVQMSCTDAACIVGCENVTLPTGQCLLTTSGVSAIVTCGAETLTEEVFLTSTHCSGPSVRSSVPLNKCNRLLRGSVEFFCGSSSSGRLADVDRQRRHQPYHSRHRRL
# UniProt Q9BJF5, 1-507: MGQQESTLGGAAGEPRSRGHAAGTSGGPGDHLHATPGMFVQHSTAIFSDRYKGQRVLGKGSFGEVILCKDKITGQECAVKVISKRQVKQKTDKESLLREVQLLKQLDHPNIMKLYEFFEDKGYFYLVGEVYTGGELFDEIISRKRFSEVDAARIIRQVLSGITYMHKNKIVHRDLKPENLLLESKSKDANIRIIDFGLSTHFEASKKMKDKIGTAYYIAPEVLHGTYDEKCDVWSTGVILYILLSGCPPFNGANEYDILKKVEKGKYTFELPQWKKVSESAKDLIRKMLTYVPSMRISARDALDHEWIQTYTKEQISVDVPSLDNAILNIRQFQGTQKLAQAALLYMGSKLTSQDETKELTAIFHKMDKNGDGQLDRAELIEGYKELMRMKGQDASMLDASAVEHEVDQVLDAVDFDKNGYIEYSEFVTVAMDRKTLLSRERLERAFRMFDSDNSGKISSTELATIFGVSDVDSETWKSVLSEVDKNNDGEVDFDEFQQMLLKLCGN
# UniProt O60603, whole entry, looked up: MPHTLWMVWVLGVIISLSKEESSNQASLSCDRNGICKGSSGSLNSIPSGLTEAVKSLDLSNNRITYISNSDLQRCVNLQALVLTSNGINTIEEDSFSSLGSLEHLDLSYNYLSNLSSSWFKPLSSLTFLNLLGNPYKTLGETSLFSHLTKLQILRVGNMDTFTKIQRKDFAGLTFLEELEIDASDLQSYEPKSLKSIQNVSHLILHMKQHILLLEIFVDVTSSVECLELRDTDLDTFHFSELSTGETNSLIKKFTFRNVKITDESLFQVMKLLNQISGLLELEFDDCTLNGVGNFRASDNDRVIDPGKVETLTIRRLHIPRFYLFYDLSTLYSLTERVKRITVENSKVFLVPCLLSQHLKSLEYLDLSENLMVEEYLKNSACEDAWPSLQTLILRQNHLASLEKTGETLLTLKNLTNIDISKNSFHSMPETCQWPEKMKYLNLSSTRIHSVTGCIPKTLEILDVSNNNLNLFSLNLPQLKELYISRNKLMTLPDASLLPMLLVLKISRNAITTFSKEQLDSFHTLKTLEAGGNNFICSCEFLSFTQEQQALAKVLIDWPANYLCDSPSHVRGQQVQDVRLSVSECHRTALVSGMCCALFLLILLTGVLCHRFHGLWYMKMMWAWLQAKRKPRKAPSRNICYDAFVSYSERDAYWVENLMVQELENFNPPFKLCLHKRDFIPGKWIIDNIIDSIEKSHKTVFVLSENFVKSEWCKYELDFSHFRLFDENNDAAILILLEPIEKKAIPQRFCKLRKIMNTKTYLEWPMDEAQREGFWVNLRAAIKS
# Lines come from different studies, so protocols differ. Values joined by “and” are separate records of one study, mostly repeats; a detail may differ. Numbers after ± are the reported error.
# hdac6 CD2 catalytic domain: Histone deacetylase 6, CD2 catalytic domain (hdac6, Danio rerio, UniProt F8W4B7)
# SUMO-activating enzyme subunit 2 with SAE1: SUMO-activating enzyme subunit 2, with SAE1 (Homo sapiens, UniProt Q9UBT2)
# Squalene synthase ERG9: Squalene synthase ERG9 (Saccharomyces cerevisiae, UniProt P29704)
# Genome polyprotein NS2B-NS3 protease: Genome polyprotein, NS2B-NS3 protease (ZIKV, UniProt A0A024B7W1)
# KCNJ13 M125R: Inward rectifier potassium channel 13 (KCNJ13, Homo sapiens, UniProt O60928, M125R)
Structure (SMILES),target,assay,test system,conditions,IC50
c1cnc2sc3c(N4CCNCC4)ncnc3c2c1,"Beta-glucuronidase (Lachnospira eligens, UniProt C4Z6Z2)","enzyme activity, inhibitor",,,2700 ± 600 nM
O=C(NO)c1ccccc1F,hdac6 CD2 catalytic domain,"enzyme activity, inhibitor, fluorogenic",,"30 min, with: Ac-RHK(Ac)K(Ac)-AMC",> 20000 nM
COC(=O)C1=C(C(=O)OC)C2(C(Cc3ccc(OC(F)(F)F)cc3)Nc3ccccc3)C=CC1O2 (centres unmarked),SUMO-activating enzyme subunit 2 with SAE1,"SUMOylation, inhibitor, AlphaScreen",,with: SUMO1-RanGAP1 conjugation,920 nM
N#Cc1c(C(F)(F)F)cc(-c2ccncc2)nc1SCC(=O)Nc1ncco1,"TAAR1 (Homo sapiens, UniProt Q96RJ0)",,,,> 10000 nM
CC(Oc1ccccc1)C(=O)Nc1ccc(Cl)cc1 (centres unmarked),"guaB (Escherichia coli K-12, UniProt P0ADG7, L444Y/S250A)","enzyme activity, inhibitor",,,1800 nM
COc1ccc(CN2CCN(C(c3ccc(F)cc3)c3ccc(F)cc3)CC2)c(OC)c1OC,"RNMT (Homo sapiens, UniProt O43148)","enzyme activity, inhibitor",,,13700 ± 800 nM
O=C(NO)c1c(F)c(F)c(F)c(F)c1F,hdac6 CD2 catalytic domain,"enzyme activity, inhibitor, fluorogenic",,"30 min, with: Ac-RHK(Ac)K(Ac)-AMC",> 20000 nM
O=C(O)CC1(n2cnnn2)CCCCC1,"VIM-2 (Escherichia coli, UniProt Q5U7L7)",,,"10 min preincubation, with: FC5 fluorogenic substrate",858000 nM
Nc1c(S(=O)(=O)Oc2ccccc2NC(=O)Cc2c[nH]c3ccccc23)ccc2ccccc12,"5'-nucleotidase (Rattus norvegicus, UniProt P21588)",malachite green,rat,,910 ± 40 nM
O=[N+]([O-])c1ccc(N=Nc2c(S(=O)(=O)O)cc3cc(S(=O)(=O)O)ccc3c2O)c([N+](=O)[O-])c1,"Bcl-2-related protein A1 (Mus musculus, UniProt Q07440, C113S/P104K)","binding, fluorescence polarization",,with: FITC-Noxa peptide,45800 nM
c1cc2c(nc1N1CCOCC1)sc1c(N3CCNCC3)nnnc12,"Beta-glucuronidase (Lachnospira eligens, UniProt C4Z6Z2)","enzyme activity, inhibitor",,,800 ± 100 nM
O=c1[nH]c2sc3c(c2c(=O)n1O)CCC3,"Gag-Pol polyprotein, reverse transcriptase RNase H (gag-pol, Human immunodeficiency virus 1, UniProt P03366)","RNase H activity, inhibitor",,with: HTS-1 RNA/DNA substrate,100 ± 30 nM
CN(CCCCCN(C)c1ccc(C(=N)N)cc1)c1ccc(C(=N)N)cc1,"Grin1/Grin2a/Grin2b, MK-801 channel binding site (Rattus norvegicus, UniProt P35439+Q00959+Q00960)",,,pH 7,560 ± 80 nM
O=C(c1ccc(O)c(Sc2ccccc2)c1)N1Cc2ccccc2C1,"HSP90AA1 (Homo sapiens, UniProt P07900)","binding, fluorescence polarization",,with: FITC-geldanamycin,~4800 nM
OCCNc1nc(N2CCNCC2)c2sc3nc(-c4ccccc4)ccc3c2n1,"Beta-glucuronidase (uidA, Escherichia coli, UniProt P05804)","enzyme activity, inhibitor",,,41 ± 9 nM
Cc1ccc(-c2c(C=C(C#N)c3cnccn3)n(CCCO)c3ncnc(N)c23)cc1,"Ribosomal protein S6 kinase alpha-3, C-terminal kinase domain (Rps6ka3, Mus musculus, UniProt P18654)","kinase activity, inhibitor",,C-terminal kinase domain,12 nM
CCC[C@@H](Nc1ccccc1)C12C=CC(O1)C(C(=O)OC)=C2C(=O)OC (some centres unmarked),SUMO-activating enzyme subunit 2 with SAE1,"SUMOylation, inhibitor, AlphaScreen",,with: SUMO1-RanGAP1 conjugation,840 nM
O=C(O)C(Cc1nn[nH]n1)[C@@H]1CCN[C@H]1C(=O)O (relative stereo),"native AMPA receptor, rat",binding,rat cortical synaptosomes,with: [3H]AMPA,> 100000 nM
O=C(COC(=O)CNC(=O)c1ccccc1Cl)Nc1ccccc1Cl,"Cruzipain (Trypanosoma cruzi, UniProt P25779)","enzyme activity, inhibitor",,,250 nM
CC(C)=CCC/C(C)=C/CCCCN1[C@@H](COP(=O)(O)OP(=O)(O)O)[C@]1(C)CC/C=C(\C)CCC=C(C)C (relative stereo),Squalene synthase ERG9,"enzyme activity, inhibitor",,"pH 7.2, tetrabutylammonium salt, with: 100 µM [3H]FPP, no added pyrophosphate",7200 ± 800 nM
NCc1ccc(-c2ncc(NCC3CCNCC3)nc2-c2ccc(-c3ccoc3)cc2)cc1,Genome polyprotein NS2B-NS3 protease,"enzyme activity, inhibitor",,Gly4-Ser-Gly4-linked NS2B-NS3 protease,400 ± 50 nM
CNc1nc(N2CCNCC2)c2sc3ncccc3c2n1,"Beta-glucuronidase (Streptococcus agalactiae serotype V, UniProt Q8E0N2)","enzyme activity, inhibitor",,,2800 ± 600 nM
COC(=O)C1=C(C(=O)OC)C2([C@@H](C)Nc3ccc(OC)cc3)C=CC1O2 (some centres unmarked),SUMO-activating enzyme subunit 2 with SAE1,"SUMOylation, inhibitor, AlphaScreen",,with: SUMO1-RanGAP1 conjugation,55200 nM
COc1ccc(C(SC[C@H](N)C(=O)NCCOCCNC(=O)c2ccc(-c3c4ccc(=N)c(S(=O)(=O)O)c-4oc4c(S(=O)(=O)O)c(N)ccc34)c(C(=O)O)c2)(c2ccccc2)c2ccccc2)cc1,"KIF11 (Homo sapiens, UniProt P52732)","microtubule-stimulated ATPase activity, inhibitor",,,730 nM
COC(=O)C1=C(C(=O)OC)C2([C@@H](Cc3ccc(OC)cc3)Nc3ccccc3)C=CC1O2 (some centres unmarked),SUMO-activating enzyme subunit 2 with SAE1,"SUMOylation, inhibitor, AlphaScreen",,with: SUMO1-RanGAP1 conjugation,530 nM
CC1CCN(Cc2cc(Cl)c3cccnc3c2O)CC1,KCNJ13 M125R,"ion current, inhibitor, thallium flux",T-REx-HEK293,,4800 nM
C=C(CC/C=C(\C)CCC=C(C)C)CN1[C@@H](COP(=O)(O)OP(=O)(O)O)[C@]1(C)CC/C=C(\C)CCC=C(C)C (relative stereo),Squalene synthase ERG9,"enzyme activity, inhibitor",,"pH 7.2, with: 1.5 mM pyrophosphate, 100 µM [3H]FPP",4000 ± 400 nM
Cc1cnc(Nc2ccc(N3CCN(C)CC3)cc2)nc1Nc1cccc(NS(=O)(=O)C(C)(C)C)c1,"Bromodomain-containing protein 4, BD1 (BRD4, Homo sapiens, UniProt O60885)",,,,105 nM
O=C(NC1CCN(Cc2cc(Cl)c3cccnc3c2O)CC1)c1ccc(Cl)cc1,KCNJ13 M125R,"ion current, inhibitor, thallium flux",T-REx-HEK293,,3900 nM
NC(=O)c1cc(Sc2ccc(N)cc2)nc2ccccc12,"CDPK1 (Toxoplasma gondii, UniProt Q9BJF5)","kinase activity, inhibitor, ELISA",,"with: syntide-2 substrate, ATP 25 µM",> 20000 nM
NCc1ccc(-c2ncc(OCC3CCNCC3)nc2-c2ccc3[nH]ccc3c2)cc1,Genome polyprotein NS2B-NS3 protease,"enzyme activity, inhibitor",,Gly4-Ser-Gly4-linked NS2B-NS3 protease,1120 nM and 1100 nM
COc1ccc2c(=O)oc3c(OC)cc(CCN4CCNCC4)c4c(=O)oc1c2c34,"TLR2 (Homo sapiens, UniProt O60603)","reporter gene, antagonist, SEAP reporter",HEK-Blue hTLR2 cells,"24 h, with: Pam3CSK4 100 ng/mL",2550 ± 70 nM
COc1ccc2c(c1)c(CC(=O)NCCCCNC(=O)CCC(=O)OC1c3cc4c(cc3C(c3cc(OC)c(OC)c(OC)c3)C3C(=O)OCC13)OCO4)c(C)n2C(=O)c1ccc(Cl)cc1 (centres unmarked),"PTGS2 (Homo sapiens, UniProt P35354)","enzyme activity, inhibitor",1483 HNSCC cells,,200 nM
CCOC(CNCc1ccc2[nH]c3c(C)c4ccncc4c(C)c3c2c1)OCC,"Toll-like receptor 3 (Homo sapiens, UniProt O15455)","reporter gene, SEAP reporter",HEK-Blue hTLR3,with: poly(I:C),240 ± 20 nM
O=c1ccn([C@@H]2O[C@H](COP(=O)(O)OP(=O)(O)OP(=O)(O)O)[C@@H](O)[C@]2(F)Br)c(=O)[nH]1,"Genome polyprotein, NS5B polymerase (Hepatitis C virus genotype 4a, UniProt O39929)","polymerase activity, inhibitor","Hepatitis C virus, genotype 4a",,1800 nM
